Measured values gathered from unrelated publications.
Compare with care: the assays were run in different laboratories. Several values in a cell are separate wells, animals, samples, runs or records. ± gives the spread as reported.

| SMILES | target or system | assay | test system | conditions | measurement | result |
| --- | --- | --- | --- | --- | --- | --- |
| C[C@H]1C[C@@H](N2C(=N)N[C@](C)(c3cccc(NC(=O)c4cccc(C#N)c4)c3Cl)CC2=O)CCO1 |  |  | Wistar Han rat male | 1000 mg/kg, 24 h, day 7 | plasma concentration | 928 to 8370 ng/mL |
| N=C(N)NCCNC(=O)C1(Nc2ccccc2)CCN(Cc2ccccc2)CC1 |  |  | rat, plasma | 5 h, room temperature | plasma stability | stable |
| C1=Cc2nc1cc1ccc([n-]1)c(-c1ccccc1)c1nc(cc3ccc([n-]3)c2-c2ccccc2)C=C1.CC(=O)[O-].[Mn+3] |  | LC-MS/MS | Sprague-Dawley rat, plasma | oral gavage, dose not given, 30 min, individual rat Rat1 | plasma concentration | 20 ng/mL |
| C[C@H]1COCCN1c1nc(NCc2cccnc2C(F)(F)F)c2cccnc2n1 |  |  | conscious rat, plasma | intravenous, 30 mg/kg, 5 min | plasma concentration | 139000 ng/mL |
| O=C(N/N=C/c1ccccc1O)c1ccncc1 |  |  | male Wistar Han rats, plasma | intravenous, 10 mg/kg, 1 to 300 min | plasma level of active form | not detected |
| CCCC(C(=O)c1ccc(O)c(O)c1)N1CCCC1 (centres unmarked) |  | LC-MS/MS | rat, trunk blood plasma | subcutaneous, 4 mg/kg MDPV, 40 min | plasma concentration | 108 ± 14.4 ng/mL |
| C1=Cc2nc1cc1ccc([n-]1)c(C1CC1)c1nc(cc3ccc([n-]3)c2C2CC2)C=C1.CC(=O)[O-].[Mn+3] |  | LC-MS/MS | Sprague-Dawley rat, plasma | oral gavage, dose not given, 360 min | plasma concentration | 129 ng/mL and 502 ng/mL |
| CCC(C)(C)C(=O)O[C@H]1C[C@@H](C)C=C2C=C[C@H](C)[C@H](CC[C@@H]3C[C@@H](O)CC(=O)O3)[C@H]21 | human coronavirus OC43 | virus-induced cell killing | MRC-5 | screen | maximum inhibition | 4.8% |
| CCCC(C(=O)c1ccc(O)c(OC)c1)N1CCCC1 (centres unmarked) |  | LC-MS/MS | rat, trunk blood plasma | subcutaneous, 4 mg/kg MDPV, 40 min | plasma concentration | 99 ± 12.5 ng/mL |
| CCCCN1C[C@H](O)[C@@H](O)[C@H](O)[C@H]1CO | human coronavirus OC43 | virus-induced cell killing | MRC-5 | screen | maximum inhibition | 22.4% |
| CCCC(C(=O)c1ccc2c(c1)OCO2)N1CCCC1.Cl (racemic) |  | LC-MS/MS | rat, trunk blood plasma | subcutaneous, 1 mg/kg, 40 min | plasma concentration | 130 ng/mL |

Excerpt of the above:
| SMILES | target or system | assay | test system | conditions | measurement | result |
| --- | --- | --- | --- | --- | --- | --- |
| CCCC(C(=O)c1ccc(O)c(OC)c1)N1CCCC1 (centres unmarked) |  | LC-MS/MS | rat, trunk blood plasma | subcutaneous, 4 mg/kg MDPV, 40 min | plasma concentration | 99 ± 12.5 ng/mL |
